Measurements pooled from the literature.
rep main protease: Replicase polyprotein 1ab, main protease (rep, Severe acute respiratory syndrome coronavirus 2, UniProt P0DTD1)
plsY3: Glycerol-3-phosphate acyltransferase 3 (plsY3, Bacillus anthracis, UniProt Q81Y92)
Sequence of UniProt Q81Y92 (whole entry, looked up): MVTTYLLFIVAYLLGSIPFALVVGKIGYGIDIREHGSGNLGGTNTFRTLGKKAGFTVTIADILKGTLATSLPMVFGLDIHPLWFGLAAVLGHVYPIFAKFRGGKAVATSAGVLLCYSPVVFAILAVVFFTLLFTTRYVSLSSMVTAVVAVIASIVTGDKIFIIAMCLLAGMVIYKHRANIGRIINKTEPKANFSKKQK
RBD, SARS-CoV-2, spike, with ACE2: Angiotensin-converting enzyme 2, with SARS-CoV-2 spike RBD (ACE2, Homo sapiens, UniProt Q9BYF1)
Sequence of UniProt Q9BYF1 (whole entry, looked up): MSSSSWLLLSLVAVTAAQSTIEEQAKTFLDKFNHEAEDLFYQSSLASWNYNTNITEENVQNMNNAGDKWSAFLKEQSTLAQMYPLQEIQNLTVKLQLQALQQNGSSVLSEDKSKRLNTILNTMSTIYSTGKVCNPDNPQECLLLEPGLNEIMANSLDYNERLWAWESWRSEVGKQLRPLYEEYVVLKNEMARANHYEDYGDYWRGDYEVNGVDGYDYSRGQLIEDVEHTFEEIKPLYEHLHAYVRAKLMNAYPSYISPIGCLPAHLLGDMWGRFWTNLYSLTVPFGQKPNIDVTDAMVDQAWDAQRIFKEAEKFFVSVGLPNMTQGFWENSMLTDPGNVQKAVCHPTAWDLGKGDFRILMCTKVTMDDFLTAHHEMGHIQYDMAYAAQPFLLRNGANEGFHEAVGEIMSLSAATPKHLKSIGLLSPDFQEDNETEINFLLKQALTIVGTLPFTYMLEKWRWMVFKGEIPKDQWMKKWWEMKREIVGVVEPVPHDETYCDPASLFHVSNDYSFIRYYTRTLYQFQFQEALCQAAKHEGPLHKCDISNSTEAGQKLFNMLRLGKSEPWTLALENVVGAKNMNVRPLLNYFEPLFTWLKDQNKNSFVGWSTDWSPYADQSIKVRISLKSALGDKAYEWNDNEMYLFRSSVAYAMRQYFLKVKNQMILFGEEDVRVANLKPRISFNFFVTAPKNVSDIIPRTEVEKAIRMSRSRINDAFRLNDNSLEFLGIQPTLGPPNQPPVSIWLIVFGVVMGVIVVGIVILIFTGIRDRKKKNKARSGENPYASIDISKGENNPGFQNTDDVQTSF
Polyprotein P1234 nsP2 protease domain: Polyprotein P1234, nsP2 protease domain (Chikungunya virus, UniProt Q5XXP4)
Sequence of UniProt Q5XXP4 (whole entry, looked up): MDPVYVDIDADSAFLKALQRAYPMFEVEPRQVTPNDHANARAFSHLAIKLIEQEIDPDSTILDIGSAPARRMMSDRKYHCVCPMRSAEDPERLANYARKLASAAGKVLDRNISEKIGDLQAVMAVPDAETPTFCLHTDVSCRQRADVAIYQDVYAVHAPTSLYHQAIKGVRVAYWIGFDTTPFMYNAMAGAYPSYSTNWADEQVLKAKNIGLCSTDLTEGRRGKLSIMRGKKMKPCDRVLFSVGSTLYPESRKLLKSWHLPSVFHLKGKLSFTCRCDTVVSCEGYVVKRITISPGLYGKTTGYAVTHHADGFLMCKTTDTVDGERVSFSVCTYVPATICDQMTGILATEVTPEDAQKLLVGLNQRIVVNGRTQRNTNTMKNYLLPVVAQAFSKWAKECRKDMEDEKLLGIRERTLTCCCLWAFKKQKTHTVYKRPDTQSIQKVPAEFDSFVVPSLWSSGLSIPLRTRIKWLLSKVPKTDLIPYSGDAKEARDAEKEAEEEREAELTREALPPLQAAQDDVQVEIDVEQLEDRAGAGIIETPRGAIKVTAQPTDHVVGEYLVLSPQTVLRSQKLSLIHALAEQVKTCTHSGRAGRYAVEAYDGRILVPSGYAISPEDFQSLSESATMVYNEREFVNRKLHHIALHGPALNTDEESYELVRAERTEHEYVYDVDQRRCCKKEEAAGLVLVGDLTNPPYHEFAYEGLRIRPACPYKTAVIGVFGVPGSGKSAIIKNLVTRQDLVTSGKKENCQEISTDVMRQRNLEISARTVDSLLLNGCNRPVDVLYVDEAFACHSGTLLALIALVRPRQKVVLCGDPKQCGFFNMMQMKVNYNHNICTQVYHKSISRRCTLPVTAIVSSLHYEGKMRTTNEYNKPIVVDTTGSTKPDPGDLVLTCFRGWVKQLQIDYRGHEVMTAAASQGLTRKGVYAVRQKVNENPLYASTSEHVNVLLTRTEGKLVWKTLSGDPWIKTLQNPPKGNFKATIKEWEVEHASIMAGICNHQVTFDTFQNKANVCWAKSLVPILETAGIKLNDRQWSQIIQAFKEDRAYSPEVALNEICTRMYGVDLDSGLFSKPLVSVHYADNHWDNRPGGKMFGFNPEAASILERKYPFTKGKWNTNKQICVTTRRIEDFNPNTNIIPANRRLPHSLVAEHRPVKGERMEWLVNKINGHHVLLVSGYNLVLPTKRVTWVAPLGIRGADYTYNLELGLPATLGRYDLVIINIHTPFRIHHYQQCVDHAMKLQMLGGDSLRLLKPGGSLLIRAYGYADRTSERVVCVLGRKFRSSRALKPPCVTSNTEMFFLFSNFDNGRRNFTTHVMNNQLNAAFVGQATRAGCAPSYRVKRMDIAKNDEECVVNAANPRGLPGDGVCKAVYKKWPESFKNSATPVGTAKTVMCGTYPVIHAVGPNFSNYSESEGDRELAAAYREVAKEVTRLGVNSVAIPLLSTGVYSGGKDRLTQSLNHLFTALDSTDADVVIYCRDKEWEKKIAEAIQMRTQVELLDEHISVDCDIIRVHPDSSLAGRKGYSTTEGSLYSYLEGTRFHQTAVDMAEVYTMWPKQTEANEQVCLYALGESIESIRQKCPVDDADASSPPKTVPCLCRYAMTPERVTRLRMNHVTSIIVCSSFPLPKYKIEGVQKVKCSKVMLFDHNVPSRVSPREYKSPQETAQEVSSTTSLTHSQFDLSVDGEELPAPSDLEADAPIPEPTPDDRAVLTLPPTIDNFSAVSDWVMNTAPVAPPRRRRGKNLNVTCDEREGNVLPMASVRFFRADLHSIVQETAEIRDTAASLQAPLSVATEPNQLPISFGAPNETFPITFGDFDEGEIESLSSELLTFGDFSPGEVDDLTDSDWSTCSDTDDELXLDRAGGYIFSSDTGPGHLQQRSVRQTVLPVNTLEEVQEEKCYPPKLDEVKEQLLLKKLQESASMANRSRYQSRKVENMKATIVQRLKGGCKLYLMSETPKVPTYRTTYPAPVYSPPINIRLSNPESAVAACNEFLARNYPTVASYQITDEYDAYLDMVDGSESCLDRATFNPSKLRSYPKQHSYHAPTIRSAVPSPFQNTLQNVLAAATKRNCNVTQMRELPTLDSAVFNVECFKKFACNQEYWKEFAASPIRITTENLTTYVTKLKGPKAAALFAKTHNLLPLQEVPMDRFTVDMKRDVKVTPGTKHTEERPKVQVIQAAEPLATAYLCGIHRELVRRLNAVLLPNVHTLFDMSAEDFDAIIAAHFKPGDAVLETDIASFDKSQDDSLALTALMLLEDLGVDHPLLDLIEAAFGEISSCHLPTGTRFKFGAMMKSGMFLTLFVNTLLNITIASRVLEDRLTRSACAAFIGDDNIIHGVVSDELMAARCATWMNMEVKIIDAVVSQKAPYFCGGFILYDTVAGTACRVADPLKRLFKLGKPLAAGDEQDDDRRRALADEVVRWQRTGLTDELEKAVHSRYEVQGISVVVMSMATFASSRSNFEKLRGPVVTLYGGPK
Grin1: Glutamate receptor ionotropic, NMDA 1 (Grin1, Rattus norvegicus, UniProt P35439)
Sequence of UniProt Q07001 (whole entry, looked up): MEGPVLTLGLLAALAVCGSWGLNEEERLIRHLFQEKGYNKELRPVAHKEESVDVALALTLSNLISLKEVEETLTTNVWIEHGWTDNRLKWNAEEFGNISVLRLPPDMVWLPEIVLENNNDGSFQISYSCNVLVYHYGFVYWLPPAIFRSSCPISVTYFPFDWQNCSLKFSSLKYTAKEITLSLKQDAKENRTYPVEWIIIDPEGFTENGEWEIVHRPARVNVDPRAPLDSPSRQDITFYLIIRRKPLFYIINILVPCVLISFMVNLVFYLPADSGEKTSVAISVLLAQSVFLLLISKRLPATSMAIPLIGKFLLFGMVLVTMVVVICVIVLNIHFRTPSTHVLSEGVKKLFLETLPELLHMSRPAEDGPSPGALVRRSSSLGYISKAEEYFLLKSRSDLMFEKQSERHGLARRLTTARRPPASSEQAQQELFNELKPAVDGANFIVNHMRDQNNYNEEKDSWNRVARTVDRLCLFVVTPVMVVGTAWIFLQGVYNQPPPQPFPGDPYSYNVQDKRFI
Sequence of UniProt P07510 (whole entry, looked up): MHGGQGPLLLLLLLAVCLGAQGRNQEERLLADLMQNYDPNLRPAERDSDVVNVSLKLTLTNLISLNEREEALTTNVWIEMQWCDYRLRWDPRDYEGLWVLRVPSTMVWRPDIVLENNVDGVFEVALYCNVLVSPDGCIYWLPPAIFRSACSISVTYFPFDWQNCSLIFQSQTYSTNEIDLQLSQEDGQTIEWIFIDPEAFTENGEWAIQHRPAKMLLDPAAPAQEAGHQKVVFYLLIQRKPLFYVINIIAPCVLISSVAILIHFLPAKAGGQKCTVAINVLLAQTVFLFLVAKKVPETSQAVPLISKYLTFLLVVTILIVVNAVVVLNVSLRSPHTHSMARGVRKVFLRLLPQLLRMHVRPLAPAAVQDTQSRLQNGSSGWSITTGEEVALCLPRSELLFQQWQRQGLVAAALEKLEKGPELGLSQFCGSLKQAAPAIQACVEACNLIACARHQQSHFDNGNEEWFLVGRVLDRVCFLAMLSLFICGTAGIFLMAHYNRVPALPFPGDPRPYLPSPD
Sequence of UniProt P02708 (whole entry, looked up): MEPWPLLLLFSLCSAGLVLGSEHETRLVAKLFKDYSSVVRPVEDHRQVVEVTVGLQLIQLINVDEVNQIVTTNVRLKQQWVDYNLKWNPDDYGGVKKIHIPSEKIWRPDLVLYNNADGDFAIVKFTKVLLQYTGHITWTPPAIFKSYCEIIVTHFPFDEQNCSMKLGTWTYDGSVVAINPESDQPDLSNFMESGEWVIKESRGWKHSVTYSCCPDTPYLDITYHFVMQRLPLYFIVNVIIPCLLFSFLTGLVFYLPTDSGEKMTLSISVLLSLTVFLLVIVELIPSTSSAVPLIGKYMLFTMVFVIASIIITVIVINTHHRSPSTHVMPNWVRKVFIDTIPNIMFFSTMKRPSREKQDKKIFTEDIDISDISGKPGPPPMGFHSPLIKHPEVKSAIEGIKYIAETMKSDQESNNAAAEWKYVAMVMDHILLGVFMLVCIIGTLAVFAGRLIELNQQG

SMILES | target | assay | system | setting | inhibition
Clc1ccc(Cn2c(CN3CCCC3)nc3ccccc32)cc1 | rep main protease | reporter gene (mKate2), inhibitor | – | 20 µM | -0.215%
CCCCCCCC/C=C\CCCCCCCC(=O)C(F)(F)P(=O)(O)O | plsY3 | inhibitor | – | 200 µM | 68%
CN(C(=O)n1cnc(-c2ccc[n+]([O-])c2)c1)C1CCCCC1 | strychnine-sensitive glycine receptor, rat | binding | – | 50 µM, added: [3H]strychnine | 3%
Oc1ccc(C2=Cc3ccc(O)cc3OC2)cc1 | rep main protease | reporter gene (Gaussia luciferase), inhibitor | – | 20 µM | -3.13%
Cc1ccc(C)c(C(=O)N2CC[C@@H]([C@@H]3CCCN(C(=O)c4cccc5oc(=O)[nH]c45)C3)C2)c1 | rep main protease | enzyme activity, inhibitor | – | 5 µM, run 2 | 11.2%
O=C(CCCCc1ccccc1)CP(=O)(O)O | plsY3 | inhibitor | – | 200 µM | 0%
O=C(NC[C@@H]1Cc2ccccc2CN1c1nnnn1-c1ccccc1)c1cc[nH]c(=O)c1 | rep main protease | enzyme activity, inhibitor | – | 5 µM, run 1 | 11%
CCCCCCCCCCCC(=O)CP(=O)(O)O | plsY3 | inhibitor | – | 200 µM | 28%
Cc1c(-c2ccnn2C)cc(C(=O)NCc2ccc(S(C)(=O)=O)cn2)c(=O)n1-c1cccc(C(F)(F)F)c1 | rep main protease | reporter gene (Gaussia luciferase), inhibitor | – | 20 µM | 0.55%
O=C(Nc1cnccc1Cl)N1CCN(Cc2ccc3c(c2)OC(F)(F)O3)CC1 | strychnine-sensitive glycine receptor, rat | binding | – | 10 µM, added: [3H]strychnine | 1%
COC(=O)NCCc1c(C(O)c2ccccc2)[nH]c2ccc(OC)cc12 (stereo not drawn) | RBD, SARS-CoV-2, spike, with ACE2 | RBD binding, TR-FRET | – | 100 µM, added: RBD-d2 5 nM | 20 to 30%
O=C(O)c1cc(N(Cc2ccccc2O)Cc2ccccc2O)ccc1O | rep main protease | reporter gene (mKate2), inhibitor | – | 20 µM | -1.48%
COc1ccc2[nH]c(C(O)c3ccc(Cl)cc3)c(CCNC(C)=O)c2c1 (stereo not drawn) | RBD, SARS-CoV-2, spike, with ACE2 | RBD binding, TR-FRET | – | 100 µM, added: RBD-d2 5 nM | 20 to 30%
CC[C@H](C)[C@H](NC(=O)[C@H]([C@@H](C)CC)N(C)C(C)=O)C(=O)N[C@H](C(=O)N[C@@H](CC(C)C)C(=O)[C@@]1(C)CO1)[C@@H](C)O | rep main protease | reporter gene (mKate2), inhibitor | – | 20 µM | -1.09%
O=C(CCl)NNC(=O)c1cc2c(Cl)cccc2s1 | Polyprotein P1234 nsP2 protease domain | protease activity, FRET | – | 20 µM | 101%
CCOC(=O)CCN(C(=O)c1ccc2c(c1)nc(CNc1ccc(C(=N)N)cc1)n2C)c1ccccn1.Cl | rep main protease | reporter gene (Gaussia luciferase), inhibitor | – | 20 µM | 1.97%
Cc1cc(N[C@H]2C[C@H]3CC[C@@H]2N(C(=O)c2cnc4[nH]cc(C)c4c2)C3)nc(-c2cccnc2)n1 | rep main protease | enzyme activity, inhibitor | – | 5 µM, run 1 | 17.9%
CCN(Cc1ccccc1C(F)(F)F)C(=O)C1CCN(S(=O)(=O)c2ccc3[nH]ncc3c2)CC1 | CHRNA1/CHRNG/CHRND (Homo sapiens, UniProt P02708+P07510+Q07001) | – | – | 10 µM | 1%

SMILES | target | assay | system | setting | inhibition
CN(CCN1CCC(OC(=O)Nc2ccccc2-c2ccccc2)CC1)C(=O)c1ccc(CN2CCC(C(N)=O)CC2)cc1 | rat sodium channel site 2 | radioligand binding | – | 1 µM, added: [3H]batrachotoxinin 10 nM | 12%
CC[C@H](NC(=O)[C@H](CS(=O)(=O)CC1CC1)N[C@@H](c1ccc(F)cc1)C(F)(F)F)C(=O)C(=O)NC1CC1 | rep main protease | viral replication, mKate2 reporter | SARS-CoV-2 | 20 µM | -0.177%
COC(=O)NCCc1c(C(O)c2ccc(OC)cc2)[nH]c2ccc(OC)cc12 (stereo not drawn) | RBD, SARS-CoV-2, spike, with ACE2 | RBD binding, TR-FRET | – | 100 µM, added: RBD-d2 5 nM | 20 to 30%
C#Cc1cccc(NC(=O)NC(=O)CCl)c1 | Polyprotein P1234 nsP2 protease domain | protease activity, FRET | – | 20 µM | 101%
Cc1ncc(C)n2nc(/C=C/c3nc(N4CCCC4)cc(N4CCOCC4)n3)nc12 | Grin1 | radioligand binding | NMDA glycine site strychnine-insensitive | 10 µM | -11%
O=C(NC[C@H]1CC2(CCC2)CN1C(=O)Cc1ccccc1O)c1ccc2c(c1)CCNC2=O | rep main protease | enzyme activity, inhibitor | – | 5 µM, run 1 | 17.6%
O=C(Nc1cccnn1)N1CCC(=Cc2cccc(Oc3ccc(C(F)(F)F)cn3)c2)CC1 | strychnine-sensitive glycine receptor, rat | binding | – | 50 µM, added: [3H]strychnine | 8%
Cc1cc(N[C@H]2C[C@H]3CC[C@@H]2N(C(=O)c2cnc4[nH]ccc4c2)C3)nc(-c2cccnc2)n1 | rep main protease | enzyme activity, inhibitor | – | 5 µM, run 1 | 12.9%
CN[C@]1(c2ccccc2Cl)CCCCC1=O | muscarinic acetylcholine receptor | radioligand binding, antagonist, radioligand displacement | – | 30 µM | 24%
O=C(Nc1cccnn1)N1CCN([C@@H]2CCOc3cc(C(F)(F)F)ccc32)CC1 | Grin1 | binding | – | 20 µM, glycine site, strychnine-insensitive | -17%
CCCCCCCC/C=C\CCCCCCCCNC(=O)CP(=O)(O)O | plsY3 | inhibitor | – | 200 µM | 62%
Cc1ccccc1C1(C(=O)NC[C@H](NC(=O)Cn2cncn2)c2ccc3ccccc3c2)CC1 | rep main protease | enzyme activity, inhibitor | – | 5 µM, run 1 | 6.1%
CCCCCCCCCCCCCCCC(=O)C(F)(F)P(=O)(O)O | plsY3 | inhibitor | – | 200 µM | 91%
Cc1c[nH]c2ncc(C(=O)N[C@H]3[C@H](CNc4cc(=O)n5ccccc5n4)CCC34CCC4)cc12 | rep main protease | enzyme activity, inhibitor | – | 5 µM, run 1 | 17%
CCCCCC/C=C\CCCCCCCCCC(=O)CP(=O)(O)O | plsY3 | inhibitor | – | 200 µM | 40%
O=C(N[C@@H](CNC(=O)[C@H]1CCCc2[nH]cnc21)c1ccc2ccccc2c1)c1cccnn1 | rep main protease | enzyme activity, inhibitor | – | 5 µM, run 1 | 17.2%
CCCNC(=O)[C@H]1O[C@@H]1C(=O)N[C@H](C(=O)N1CCC[C@H]1C(=O)OC)[C@@H](C)CC | rep main protease | reporter gene (mKate2), inhibitor | – | 20 µM | -0.884%
COc1ccc(OS(=O)(=O)NC(=O)CCCCc2ccccc2)cc1 | plsY3 | inhibitor | – | 200 µM | 13%

Some of these lines once more:
SMILES | target | assay | system | setting | inhibition
O=C(Nc1cccnn1)N1CCN([C@@H]2CCOc3cc(C(F)(F)F)ccc32)CC1 | Grin1 | binding | – | 20 µM, glycine site, strychnine-insensitive | -17%
CCOC(=O)CCN(C(=O)c1ccc2c(c1)nc(CNc1ccc(C(=N)N)cc1)n2C)c1ccccn1.Cl | rep main protease | reporter gene (Gaussia luciferase), inhibitor | – | 20 µM | 1.97%
CCN(Cc1ccccc1C(F)(F)F)C(=O)C1CCN(S(=O)(=O)c2ccc3[nH]ncc3c2)CC1 | CHRNA1/CHRNG/CHRND (Homo sapiens, UniProt P02708+P07510+Q07001) | – | – | 10 µM | 1%
COC(=O)NCCc1c(C(O)c2ccccc2)[nH]c2ccc(OC)cc12 (stereo not drawn) | RBD, SARS-CoV-2, spike, with ACE2 | RBD binding, TR-FRET | – | 100 µM, added: RBD-d2 5 nM | 20 to 30%
O=C(NC[C@@H]1Cc2ccccc2CN1c1nnnn1-c1ccccc1)c1cc[nH]c(=O)c1 | rep main protease | enzyme activity, inhibitor | – | 5 µM, run 1 | 11%
